Results from different studies.
Every numbered part comes from another study and shows a few of its results, in no order. Values joined by “and” are separate records of one study, mostly repeats; a detail may differ.
Sequence of UniProt O00141 (whole entry, looked up): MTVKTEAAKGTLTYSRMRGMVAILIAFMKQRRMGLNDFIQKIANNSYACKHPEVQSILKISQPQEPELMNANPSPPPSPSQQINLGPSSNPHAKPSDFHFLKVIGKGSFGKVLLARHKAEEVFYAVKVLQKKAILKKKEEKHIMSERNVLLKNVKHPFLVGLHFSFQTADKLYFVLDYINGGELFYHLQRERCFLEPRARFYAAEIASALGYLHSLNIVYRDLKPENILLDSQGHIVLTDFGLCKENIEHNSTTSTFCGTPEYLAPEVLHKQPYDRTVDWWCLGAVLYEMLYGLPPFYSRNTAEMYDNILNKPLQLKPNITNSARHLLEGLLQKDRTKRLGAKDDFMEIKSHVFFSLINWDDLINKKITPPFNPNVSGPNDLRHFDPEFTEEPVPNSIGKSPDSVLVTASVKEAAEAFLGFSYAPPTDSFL
Sequence of UniProt Q00535 (whole entry, looked up): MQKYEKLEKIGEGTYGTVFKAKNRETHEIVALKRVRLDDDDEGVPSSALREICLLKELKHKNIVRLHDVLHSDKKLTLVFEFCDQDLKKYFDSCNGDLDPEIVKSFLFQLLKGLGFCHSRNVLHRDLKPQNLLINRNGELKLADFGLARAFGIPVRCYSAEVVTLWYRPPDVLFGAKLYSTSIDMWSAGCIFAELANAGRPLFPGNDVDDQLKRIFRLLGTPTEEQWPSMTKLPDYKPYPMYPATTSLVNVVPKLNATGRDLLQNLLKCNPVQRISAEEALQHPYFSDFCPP
Sequence of UniProt Q9P1W9 (whole entry, looked up): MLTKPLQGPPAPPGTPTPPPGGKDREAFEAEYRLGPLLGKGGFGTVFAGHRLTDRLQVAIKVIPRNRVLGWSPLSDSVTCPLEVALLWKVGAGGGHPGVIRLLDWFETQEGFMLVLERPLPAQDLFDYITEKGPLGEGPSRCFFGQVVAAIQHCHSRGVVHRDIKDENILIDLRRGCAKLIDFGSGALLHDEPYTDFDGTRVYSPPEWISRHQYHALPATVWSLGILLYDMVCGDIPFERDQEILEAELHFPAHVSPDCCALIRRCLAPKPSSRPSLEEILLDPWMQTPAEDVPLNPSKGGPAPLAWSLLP
Sequence of UniProt Q16659 (whole entry, looked up): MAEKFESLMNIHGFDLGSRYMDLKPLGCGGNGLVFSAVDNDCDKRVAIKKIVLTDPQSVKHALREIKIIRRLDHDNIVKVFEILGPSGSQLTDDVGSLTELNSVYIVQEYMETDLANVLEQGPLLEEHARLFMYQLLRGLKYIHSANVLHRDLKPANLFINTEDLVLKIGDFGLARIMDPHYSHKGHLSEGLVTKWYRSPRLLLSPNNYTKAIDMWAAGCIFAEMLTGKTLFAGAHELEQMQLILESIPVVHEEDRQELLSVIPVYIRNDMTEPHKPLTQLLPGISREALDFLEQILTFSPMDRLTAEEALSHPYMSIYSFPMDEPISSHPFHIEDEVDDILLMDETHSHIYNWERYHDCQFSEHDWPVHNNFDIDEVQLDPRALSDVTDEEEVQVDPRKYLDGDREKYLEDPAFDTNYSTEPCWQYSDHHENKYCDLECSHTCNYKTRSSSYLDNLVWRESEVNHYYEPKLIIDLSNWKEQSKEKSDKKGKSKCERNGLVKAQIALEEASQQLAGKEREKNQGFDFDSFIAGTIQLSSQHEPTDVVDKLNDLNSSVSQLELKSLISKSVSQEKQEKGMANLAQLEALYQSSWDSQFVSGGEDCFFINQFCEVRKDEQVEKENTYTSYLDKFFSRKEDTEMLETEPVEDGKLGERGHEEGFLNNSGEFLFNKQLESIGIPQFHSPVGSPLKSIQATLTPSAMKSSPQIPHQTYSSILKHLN
Sequence of UniProt Q9Y6E0 (whole entry, looked up): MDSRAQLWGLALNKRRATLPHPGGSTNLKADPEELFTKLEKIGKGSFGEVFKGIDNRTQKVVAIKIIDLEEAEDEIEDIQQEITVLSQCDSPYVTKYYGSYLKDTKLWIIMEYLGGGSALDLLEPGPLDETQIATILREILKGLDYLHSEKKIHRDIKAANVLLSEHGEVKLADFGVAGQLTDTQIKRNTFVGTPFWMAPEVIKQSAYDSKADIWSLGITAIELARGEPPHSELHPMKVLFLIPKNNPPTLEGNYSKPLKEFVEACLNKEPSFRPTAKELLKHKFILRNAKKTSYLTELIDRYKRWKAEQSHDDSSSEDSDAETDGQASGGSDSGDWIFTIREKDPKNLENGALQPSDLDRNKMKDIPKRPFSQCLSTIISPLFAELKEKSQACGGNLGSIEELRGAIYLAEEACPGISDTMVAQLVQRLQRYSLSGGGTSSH
Sequence of UniProt O43353 (whole entry, looked up): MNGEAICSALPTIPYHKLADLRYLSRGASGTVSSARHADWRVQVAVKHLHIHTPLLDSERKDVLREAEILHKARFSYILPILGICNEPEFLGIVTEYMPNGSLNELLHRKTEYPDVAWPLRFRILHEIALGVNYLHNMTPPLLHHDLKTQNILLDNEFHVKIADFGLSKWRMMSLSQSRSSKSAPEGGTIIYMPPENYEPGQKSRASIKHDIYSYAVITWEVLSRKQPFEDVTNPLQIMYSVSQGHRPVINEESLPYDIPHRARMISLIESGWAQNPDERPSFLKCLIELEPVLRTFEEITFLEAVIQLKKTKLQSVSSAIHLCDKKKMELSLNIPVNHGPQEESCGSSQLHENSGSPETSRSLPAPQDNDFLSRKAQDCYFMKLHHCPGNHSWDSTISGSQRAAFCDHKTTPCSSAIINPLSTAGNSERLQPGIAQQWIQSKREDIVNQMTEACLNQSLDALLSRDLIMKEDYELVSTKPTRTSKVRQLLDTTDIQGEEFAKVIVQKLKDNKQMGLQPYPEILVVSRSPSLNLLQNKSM
Sequence of UniProt Q99755 (whole entry, looked up): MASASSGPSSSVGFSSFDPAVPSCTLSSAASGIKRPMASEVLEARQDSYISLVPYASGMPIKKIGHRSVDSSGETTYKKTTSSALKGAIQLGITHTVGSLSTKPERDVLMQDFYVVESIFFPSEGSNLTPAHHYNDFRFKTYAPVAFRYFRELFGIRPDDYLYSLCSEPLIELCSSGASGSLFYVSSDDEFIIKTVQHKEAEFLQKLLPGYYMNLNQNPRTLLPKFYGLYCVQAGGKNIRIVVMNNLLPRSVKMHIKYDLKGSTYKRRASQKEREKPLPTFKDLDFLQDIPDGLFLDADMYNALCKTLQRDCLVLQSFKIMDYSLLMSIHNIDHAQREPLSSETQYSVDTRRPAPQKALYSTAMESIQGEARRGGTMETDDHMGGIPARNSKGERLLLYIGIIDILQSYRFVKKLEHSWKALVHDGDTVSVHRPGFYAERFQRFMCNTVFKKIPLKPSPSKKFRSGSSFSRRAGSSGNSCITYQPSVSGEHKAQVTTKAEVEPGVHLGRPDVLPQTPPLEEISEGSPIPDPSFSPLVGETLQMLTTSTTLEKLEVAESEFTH
Sequence of UniProt P54753 (whole entry, looked up): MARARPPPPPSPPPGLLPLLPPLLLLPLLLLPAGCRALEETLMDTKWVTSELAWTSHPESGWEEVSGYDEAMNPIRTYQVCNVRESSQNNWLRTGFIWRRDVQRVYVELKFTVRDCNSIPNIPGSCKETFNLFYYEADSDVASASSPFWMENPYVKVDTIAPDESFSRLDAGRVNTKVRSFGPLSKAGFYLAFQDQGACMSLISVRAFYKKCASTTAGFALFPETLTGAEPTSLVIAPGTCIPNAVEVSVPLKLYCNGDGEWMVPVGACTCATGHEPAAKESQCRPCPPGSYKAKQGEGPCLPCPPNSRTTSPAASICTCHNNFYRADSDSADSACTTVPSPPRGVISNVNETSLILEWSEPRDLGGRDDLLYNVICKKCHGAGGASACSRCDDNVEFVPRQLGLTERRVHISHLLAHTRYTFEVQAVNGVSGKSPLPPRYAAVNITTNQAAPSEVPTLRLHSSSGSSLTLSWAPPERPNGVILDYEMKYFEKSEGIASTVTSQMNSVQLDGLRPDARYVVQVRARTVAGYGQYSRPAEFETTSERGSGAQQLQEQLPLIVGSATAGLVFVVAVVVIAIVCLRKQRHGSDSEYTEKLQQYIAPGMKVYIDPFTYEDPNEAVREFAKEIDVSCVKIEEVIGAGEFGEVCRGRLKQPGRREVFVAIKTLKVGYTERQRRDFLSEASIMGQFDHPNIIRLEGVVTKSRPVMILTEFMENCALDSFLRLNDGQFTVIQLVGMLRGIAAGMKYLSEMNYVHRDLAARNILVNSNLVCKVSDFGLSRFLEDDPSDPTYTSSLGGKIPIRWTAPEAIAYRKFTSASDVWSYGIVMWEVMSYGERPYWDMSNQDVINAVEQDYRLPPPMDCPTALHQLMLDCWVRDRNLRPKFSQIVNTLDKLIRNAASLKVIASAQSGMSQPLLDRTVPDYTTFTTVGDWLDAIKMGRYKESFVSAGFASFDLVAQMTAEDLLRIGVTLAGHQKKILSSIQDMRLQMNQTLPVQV
Sequence of UniProt O14757 (whole entry, looked up): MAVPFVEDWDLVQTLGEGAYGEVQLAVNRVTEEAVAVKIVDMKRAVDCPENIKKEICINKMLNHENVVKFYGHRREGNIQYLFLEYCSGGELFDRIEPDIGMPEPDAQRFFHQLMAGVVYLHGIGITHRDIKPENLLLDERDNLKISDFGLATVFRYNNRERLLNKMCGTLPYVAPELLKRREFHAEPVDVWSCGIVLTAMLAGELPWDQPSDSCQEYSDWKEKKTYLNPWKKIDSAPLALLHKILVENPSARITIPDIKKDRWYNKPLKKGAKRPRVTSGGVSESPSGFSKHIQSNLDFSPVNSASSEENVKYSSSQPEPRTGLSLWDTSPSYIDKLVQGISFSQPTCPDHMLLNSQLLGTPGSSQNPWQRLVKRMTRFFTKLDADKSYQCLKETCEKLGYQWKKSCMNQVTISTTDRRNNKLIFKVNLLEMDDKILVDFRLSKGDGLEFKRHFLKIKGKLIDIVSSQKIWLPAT

Block 1 — read-out: cell-free assay; technique: competition with immobilised ligand; concentration: 1 µM
SMILES: O=C(Nc1cccnn1)N1CC(C/C=C/c2cncc(Oc3ccc(C(F)(F)F)cn3)n2)C1
MAPK6 (Homo sapiens, UniProt Q16659) — remaining binding: 100%.
It gave 100% for remaining binding (FLT4 (Homo sapiens, UniProt P35916)).
For IGF1R (Homo sapiens, UniProt P08069): remaining binding read 100%.
The remaining binding was 100% (EPHB3 (Homo sapiens, UniProt P54753)).
It gave 98% for remaining binding (STK24 (Homo sapiens, UniProt Q9Y6E0)).
MAP3K5 (Homo sapiens, UniProt Q99683) — remaining binding: 98%.
For PIK3CB (Homo sapiens, UniProt P42338): remaining binding read 79%.
It gave 100% for remaining binding (SYK (Homo sapiens, UniProt P43405)).
CDK5 (Homo sapiens, UniProt Q00535) — remaining binding: 100%.
The remaining binding was 100% (CHEK1 (Homo sapiens, UniProt O14757)).
SGK1 (Homo sapiens, UniProt O00141) — remaining binding: 85%.
It gave 60% for remaining binding (Tyrosine-protein kinase ABL1, non-phosphorylated (ABL1, Homo sapiens, UniProt P00519, T315I)).
The remaining binding was 1.4% (BUB1 (Homo sapiens, UniProt O43683)).
For ALK (Homo sapiens, UniProt Q9UM73): remaining binding read 97%.
It gave 62% for remaining binding (FLT3 (Homo sapiens, UniProt P36888, N841I)).
It gave 93% for remaining binding (RIPK2 (Homo sapiens, UniProt O43353)).
It gave 100% for remaining binding (PIP5K1A (Homo sapiens, UniProt Q99755)).
The remaining binding was 100% (MAPK4 (Homo sapiens, UniProt P31152)).

Block 2 — cell line: HEK293T; read-out: protein-protein interaction; technique: NanoBiT; time: 4 h; notes: LgBiT-linker-SmBiT control pair; direction: higher = more interaction
Structure (SMILES): CC(C)(C(=O)O)[C@H](NC(=O)Cc1cccc(I)c1)c1ccc2oc(=O)[nH]c2c1
The luminescence signal was 113 a.u. and 103 a.u. and 99.5 a.u. (0.04 nM).
It gave 118 a.u. and 129 a.u. and 115 a.u. for luminescence signal (10 nM).
The luminescence signal was 111 a.u. and 117 a.u. and 127 a.u. (3.33 nM).

Block 3 — species: human; medium: microsomes or S9; concentration: 2 µM; time: 0.5 h
CCOc1ccc(/N=C2\Nc3cccc4cccc2c34)cc1 gave a remaining compound of 0.548%.
The remaining compound of N#Cc1cccc(Nc2cccc3c2CN(c2cccc(C(=O)O)c2)C3=O)c1 is reported as 58%.
With COc1ccc(/C=C2\OC(=O)C=C2c2ccc(O)cc2)cc1 the remaining compound was 69%.
With COc1cc(Br)c(/C=C2\Oc3ccccc3C2O)cc1OC (stereo not drawn) the remaining compound was greater than 99.9%.
For CC1C(S(C)(=O)=O)=NNc2c(-c3ccccc3)cnn21 (stereo not drawn), the remaining compound was 92.8%.
The remaining compound of Cc1ccc(CN2CCC=C(CCC(=O)O)C2=O)cc1 is reported as 92.6%.
CC1(C)Oc2ccncc2C(N(Cc2ncc[nH]2)c2ccc(Cl)cc2Cl)C1O (stereo not drawn) has a remaining compound of 9.6%.
For O=C(c1cc2n(n1)CCN(C(=O)c1cccc3[nH]ccc13)C2)N1CCOCC1, the remaining compound was 92.6%.

Block 4 — read-out: enzyme activity; mode: inhibitor; concentration: 0.5 µM; relative to: control
Structure (SMILES): CN(C)S(=O)(=O)c1ccc2c(c1)/C(=C/c1cc3c([nH]1)CCCC3)C(=O)N2
RPS6KB1 (Homo sapiens, UniProt P23443) — remaining activity: 96.5%.
FGFR4 (Homo sapiens, UniProt P22455) — remaining activity: 92.9%.
The remaining activity was 105% (SGK1 (Homo sapiens, UniProt O00141)).
For EPHB2 (Homo sapiens, UniProt P29323): remaining activity read 98.4%.
For PIM2 (Homo sapiens, UniProt Q9P1W9): remaining activity read 108%.
It gave 93.1% for remaining activity (CSK (Homo sapiens, UniProt P41240)).
NUAK1 (Homo sapiens, UniProt O60285) — remaining activity: 10.9%.
It gave 68.1% for remaining activity (RPS6KA1 (Homo sapiens, UniProt Q15418)).
SRPK3 (Homo sapiens, UniProt Q9UPE1) — remaining activity: 67.2%.
The remaining activity was 37.2% (CSF1R (Homo sapiens, UniProt P07333)).

For quick reference, copied from above (block 4):
The remaining activity was 105% (SGK1 (Homo sapiens, UniProt O00141)).
For EPHB2 (Homo sapiens, UniProt P29323): remaining activity read 98.4%.
For PIM2 (Homo sapiens, UniProt Q9P1W9): remaining activity read 108%.
It gave 93.1% for remaining activity (CSK (Homo sapiens, UniProt P41240)).
NUAK1 (Homo sapiens, UniProt O60285) — remaining activity: 10.9%.
